Measured values of several laboratories.
A part holds a random share of what one study measured. Positions count from the first letter of the parent shown.

Study 1
Target: Histone acetyltransferase KAT6A, both winged helices, GST fusion (KAT6A, Homo sapiens, UniProt Q92794, residues 1-181)
Method: protein binding microarray
Molecule type: double-stranded DNA, one strand shown
Medium: in vitro
Concentration: not given
Setting: 8-mer, flanks averaged, mean of 2 arrays, mostly near background
Baseline: not given
Direction: higher = stronger binding
Target sequence (chain): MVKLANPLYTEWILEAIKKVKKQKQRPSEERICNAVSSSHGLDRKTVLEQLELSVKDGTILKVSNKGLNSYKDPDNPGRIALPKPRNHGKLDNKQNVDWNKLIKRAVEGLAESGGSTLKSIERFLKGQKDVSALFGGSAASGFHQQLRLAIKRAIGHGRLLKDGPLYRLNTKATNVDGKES
Oligonucleotide | E-score
ACGGGTAA | 0.217
CCGTGGGA | 0.0625
AGAAGATC | -0.0159
TGAATACA | -0.0781
GCGCCGTA | 0.363
AATTAACC | 0.127
CCAAGAGA | -0.163
AATTTAGA | -0.149
AGAACATC | -0.0546
CACCGATC | 0.0352
TGGGACAA | -0.205
AGGTAGTC | -0.214

Study 2
Target: ABI1, truncated, D143A, DHFR fusion (Arabidopsis thaliana)
Method: DHFR PCA, deep sequencing
Medium: yeast
Setting: methotrexate growth selection, single substitutions
With: (+)-ABA 200 µM
Baseline: wild-type fitted maximum
Direction: higher = stronger binding
Starting sequence: PYL1, truncated, DHFR fusion (Arabidopsis thaliana); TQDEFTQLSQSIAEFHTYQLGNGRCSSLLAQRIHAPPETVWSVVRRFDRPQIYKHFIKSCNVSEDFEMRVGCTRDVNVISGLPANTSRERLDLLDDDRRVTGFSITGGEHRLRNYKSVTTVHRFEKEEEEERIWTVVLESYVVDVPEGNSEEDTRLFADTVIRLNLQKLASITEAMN
Change | relative binding score [%]
V145Q | 64.2
V143M | 82.3
F124G | 111
S117V | -5.12
D96F | 22.9
V136D | 52.2
T173N | 69.1
R163A | 78.5
N149K | 40

Study 3
Target: CCND1, cyclin fold, Cln2 fusion (human)
Method: yeast growth competition, sequencing
Medium: yeast
Setting: strong parent motif
Baseline: not given
Direction: higher = stronger binding
Starting sequence: SCAPER docking peptide (human); SNARRSLNFGGST; partner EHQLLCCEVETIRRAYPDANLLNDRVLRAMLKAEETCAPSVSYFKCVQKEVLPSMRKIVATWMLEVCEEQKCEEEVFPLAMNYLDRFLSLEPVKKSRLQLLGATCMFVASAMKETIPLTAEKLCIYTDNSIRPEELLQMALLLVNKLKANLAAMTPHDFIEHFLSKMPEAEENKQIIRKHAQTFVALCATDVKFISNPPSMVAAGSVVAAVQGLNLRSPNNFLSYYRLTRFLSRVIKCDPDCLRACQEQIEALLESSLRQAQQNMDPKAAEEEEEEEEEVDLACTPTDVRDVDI
Change | normalised enrichment score
SNARRSNNFGGST [L7N] | -0.55
SNARRSLVFGGST [N8V] | 0.365
SNARRSLNFGFST [G11F] | 0.652
SNCRRSLNFGGST [A3C] | 0.294
SNARRSLNAGGST [F9A] | -0.0612
SNARRSRNFGGST [L7R] | -0.123
SNARRSLAFGGST [N8A] | 0.0633

Further values, each from its own experiment
Substance | target | test | system | conditions | scale | endpoint | result
PhoQ, residues 284 288 289 292 302 303 AQGLTV | PhoP, residues 12 14 15 18 19 YHFSH (Escherichia coli, UniProt P23836) | Sort-seq, refers to: YFP reporter | E. coli | PhoQ-PhoP variant library, with: 10 µM Mg2+ | baseline: high Mg2+ state, higher = stronger signaling | fold induction | 17.9
